Measured values gathered from unrelated publications.
Parts stem from different laboratories: compare values within a part only.

Sample 1 — technique: protein-binding microarray; form: double-stranded DNA, one strand shown; sample: in vitro; concentration: 2200 nM top; notes: 60-bp whole probe; added: salmon DNA 0.4 mg/ml; baseline: random background probes; direction: higher = stronger binding
Target: Interferon regulatory factor 7, full length, phosphomimetic (IRF7, Homo sapiens, UniProt Q92985, residues 1-503, S471D/S472D/S475D/S476D/S477D/S483D/S484D/S487D)
Chain of UniProt Q92985 (whole entry, unmodified, looked up): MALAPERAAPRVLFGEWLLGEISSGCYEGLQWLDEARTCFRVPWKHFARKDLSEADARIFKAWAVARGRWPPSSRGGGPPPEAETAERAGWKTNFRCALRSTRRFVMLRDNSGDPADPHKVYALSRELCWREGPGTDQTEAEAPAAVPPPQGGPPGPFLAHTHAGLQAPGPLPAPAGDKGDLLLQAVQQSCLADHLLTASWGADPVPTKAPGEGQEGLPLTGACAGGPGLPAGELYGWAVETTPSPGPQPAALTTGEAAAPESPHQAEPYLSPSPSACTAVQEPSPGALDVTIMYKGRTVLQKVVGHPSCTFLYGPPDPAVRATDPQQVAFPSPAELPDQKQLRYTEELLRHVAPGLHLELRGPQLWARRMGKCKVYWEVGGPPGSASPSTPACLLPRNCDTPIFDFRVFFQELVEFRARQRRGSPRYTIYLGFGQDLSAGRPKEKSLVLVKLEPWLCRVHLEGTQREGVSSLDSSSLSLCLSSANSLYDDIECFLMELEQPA
Oligonucleotide | fitted relative affinity [z-score]
GCCTAGCACGACGAATTGAGTATCGAGACGTGCTAGGTCTTGATTCGCTTGACGCTGCTG | -0.263
GCCTAGCACGACGGTTTCGGTTCCGAGACGTGCTAGGTCTTGATTCGCTTGACGCTGCTG | 10.5
GCCTAGCACTTAGATTTCAATCTCGATTAGTGCTAGGTCTTGATTCGCTTGACGCTGCTG | 0.183
GCCTAGCACGACGGTTCCGGTTTCGGGAAGTGCTAGGTCTTGATTCGCTTGACGCTGCTG | 4.52

Sample 2 — technique: protein binding microarray; form: double-stranded DNA, one strand shown; sample: in vitro; concentration: not given; baseline: not given; direction: higher = stronger binding
Target: Histone acetyltransferase KAT6A, both winged helices, GST fusion (KAT6A, Homo sapiens, UniProt Q92794, residues 1-181)
Notes: 8-mer, flanks averaged, mean of 2 arrays, mostly near background
Construct (chain): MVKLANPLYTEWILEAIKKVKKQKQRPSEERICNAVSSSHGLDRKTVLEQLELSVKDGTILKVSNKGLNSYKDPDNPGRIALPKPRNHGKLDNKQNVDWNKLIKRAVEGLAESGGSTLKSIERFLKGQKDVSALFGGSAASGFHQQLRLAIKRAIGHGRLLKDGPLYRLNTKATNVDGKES
Oligonucleotide | E-score
CGATGAAA | -0.0349
ATATGCTC | -0.0921
CCCAACGC | 0.0979
ACTAGGAT | -0.0891
TATATGCA | 0.001

Further values, each from its own experiment
UNK zinc fingers 1-6, GST-SBP tag: RING finger protein unkempt homolog, zinc fingers 1-6, GST-SBP tag (UNK, Homo sapiens, UniProt Q9C0B0, residues 30-357)
Chain of UniProt Q9C0B0 (30-357, looked up): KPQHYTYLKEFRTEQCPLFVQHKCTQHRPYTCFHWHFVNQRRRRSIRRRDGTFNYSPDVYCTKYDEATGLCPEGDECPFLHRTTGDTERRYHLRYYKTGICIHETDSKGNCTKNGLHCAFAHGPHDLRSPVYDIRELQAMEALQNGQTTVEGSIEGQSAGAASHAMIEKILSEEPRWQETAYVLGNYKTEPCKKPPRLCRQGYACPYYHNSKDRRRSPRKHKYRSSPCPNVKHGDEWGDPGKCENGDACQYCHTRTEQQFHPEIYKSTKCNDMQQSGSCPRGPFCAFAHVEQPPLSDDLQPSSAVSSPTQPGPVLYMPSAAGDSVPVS
Substance | target | test | system | conditions | scale | measurement | result
GGGAGUUCUACAGUCCGACGAUCGAACGGGGACGCCUGAAAGAAGAGCUAGAAGAAGCCCGGGACAUAGCUAGGCGGCGCUCUUUAGGGAAUAUCAAGUUUAUUGGAGAGUUAUUCAAGUUGAAGAUGUUAACAGAAGCAAUACAACAGAGGAUUGAGCAUCA | UNK zinc fingers 1-6, GST-SBP tag | RNA Bind-n-Seq | RNA, in vitro | not given, RNA with constant flanks, human and mouse sites, ends assumed | baseline: input RNA pool, higher = stronger binding | bound/input enrichment | 288 ratio
PhoQ, residues 284 288 289 292 302 303 AGGCYF | PhoP, residues 12 14 15 18 19 SQCLL (Escherichia coli, UniProt P23836) | Sort-seq, refers to: YFP reporter | E. coli | PhoQ-PhoP variant library, added: 10 µM Mg2+ | baseline: high Mg2+ state, higher = stronger signaling | fold induction | 13.2
GGGAGUUCUACAGUCCGACGAUCUAUCUUUAUAAGUACCUGUGGAGACUGAUGGUGAAGGACAUGUCCAGUAUAUACAGCAUGUACAGCACACUCCUGGCUCAUAAAAAACUACAUAUAAGAAAUUUUGCUGCUGAAAGUUUUCAACAGAGGAUUGAGCAUCA | UNK zinc fingers 1-6, GST-SBP tag | RNA Bind-n-Seq | RNA, in vitro | not given, RNA with constant flanks, human and mouse sites, ends assumed | baseline: input RNA pool, higher = stronger binding | bound/input enrichment | 0.525 ratio

Excerpt of the above (sample 1):
Oligonucleotide | fitted relative affinity [z-score]
GCCTAGCACGACGGTTCCGGTTTCGGGAAGTGCTAGGTCTTGATTCGCTTGACGCTGCTG | 4.52
